{"data": "Published values collected from several papers", "note": "Compare with care: the assays were run in different laboratories. ± gives the spread as reported."}
{"Structure (SMILES)": "C[C@H](NC(=O)CCCCCNC(=S)Nc1ccc2c(c1)C(=O)OC21c2ccc(O)cc2Oc2cc(O)ccc21)C(=O)N[C@@H](C)C(=O)N1CCC[C@H]1C(=O)N[C@@H](CCC(=O)O)C(=O)N1CCC[C@H]1C(=O)N[C@@H](CCC(=O)O)C(=O)N[C@H](C(=O)NCC(=O)N[C@@H](CCC(=O)O)C(=O)O)[C@@H](C)O", "test": "cytometric bead array", "test system": "C57BL/6J mouse, hepatic ischaemia-reperfusion, serum", "setting": "intravenous, 15 mg/kg", "how to read": "relative to: vehicle", "endpoint": "serum inflammatory cytokine levels", "result": "decreased"}
{"Structure (SMILES)": "CN(C)c1cc2ccccc2c(N)n1", "test system": "ICR mouse, CCl4 liver fibrosis", "setting": "intraperitoneal, 1 and 3 mg/kg daily", "endpoint": "serum AST", "result": "decreased"}
{"Structure (SMILES)": "CCCCCCCCN(CCC(=O)Nc1ccccc1)C(=O)c1ccccn1", "test system": "Lmna G609G/G609G mouse, serum", "setting": "intraperitoneal, 40 mg/kg", "how to read": "relative to: untreated", "endpoint": "serum glucose level", "result": "increased"}
{"Structure (SMILES)": "CC(=O)N[C@@H](CC1CCCCC1)C(=O)N[C@H]1CSSC[C@@H](C(=O)N[C@@H](CCCNC(=N)N)C(N)=O)NC(=O)[C@H](CC2CCCCC2)NC(=O)[C@H](CCCNC(=N)N)NC(=O)[C@H](CCCNC(=N)N)NC(=O)[C@H](CC2CCCCC2)NC(=O)[C@H](CC(C)C)NC(=O)[C@H](CCCNC(=N)N)NC(=O)[C@@H](NC(=O)[C@H](CC2CCCCC2)NC(C)=O)CSSC[C@@H](C(=O)N[C@@H](CCCNC(=N)N)C(N)=O)NC(=O)[C@H](CC2CCCCC2)NC(=O)[C@H](CCCNC(=N)N)NC(=O)[C@H](CCCNC(=N)N)NC(=O)[C@H](CC2CCCCC2)NC(=O)[C@H](CC(C)C)NC(=O)[C@H](CCCNC(=N)N)NC1=O", "test system": "mouse bilateral renal ischemia-reperfusion", "setting": "1 mg/kg, 23 h, dosed 1 h after injury", "how to read": "relative to: vehicle", "endpoint": "serum BUN and creatinine", "result": "decreased"}
{"Structure (SMILES)": "O=C1/C(=C/c2ccc(O)c(O)c2)Oc2c1c(O)cc(O)c2-c1ccc(O)c(O)c1", "test system": "mouse, CCl4-induced liver injury", "setting": "intragastric, 200 or 100 mg/kg, 10 days pretreatment", "endpoint": "serum ALT level", "result": "decreased"}
{"Structure (SMILES)": "O=C(CN1C(C(=O)c2ccccc2)=C(O)c2ccccc2S1(=O)=O)Nc1ccccc1Br", "test system": "alloxan-induced diabetic mouse, serum", "setting": "dose not given, day 21, 504 h, high dose", "endpoint": "serum insulin", "result": "38 ± 2 pmol/L"}
{"Structure (SMILES)": "COC(=O)C1OC(Oc2c(-c3ccccc3)oc3cc(O)c(O)c(O)c3c2=O)C(O)C(O)C1O (centres unmarked)", "test": "ELISA, item: IL-10", "test system": "Balb/c mouse, serum", "setting": "oral, 5 mg/kg, together with: LPS", "endpoint": "serum concentration", "result": "64.6 pg/mL"}
{"Structure (SMILES)": "CCCCCCCCCCCCCCCC(=O)NCCCC[C@H](N)C(=O)N[C@@H](CC(=O)O)C(=O)N[C@H](C(=O)N[C@@H](Cc1c[nH]cn1)C(=O)N[C@@H](Cc1ccccc1)C(=O)N[C@@H](CCCNC(=N)N)C(=O)N[C@H](C(=O)N[C@@H](Cc1ccccc1)C(=O)N[C@@H](CCCNC(=N)N)C(=O)N[C@@H](CO)C(=O)N[C@@H](Cc1c[nH]cn1)C(=O)N[C@@H](CO)C(=O)N[C@@H](CC(=O)O)C(=O)N[C@@H](Cc1ccc(O)cc1)C(=O)N[C@@H](CCCNC(=N)N)C(=O)N[C@@H](CCCNC(=N)N)C(=O)N[C@H](C(=O)O)[C@@H](C)CC)[C@@H](C)O)[C@@H](C)O", "test system": "C57BL/6J mouse, MCD diet", "setting": "intraperitoneal, 0.6 nmol/g, 3 weeks, 3 times weekly", "endpoint": "serum AST", "result": "191 ± 22.5 IU/L"}
{"note": "A few entries again:"}
{"Structure (SMILES)": "CN(C)c1cc2ccccc2c(N)n1", "test system": "ICR mouse, CCl4 liver fibrosis", "setting": "intraperitoneal, 1 and 3 mg/kg daily", "endpoint": "serum AST", "result": "decreased"}
